Published values collected from several papers.
Every numbered part comes from another study and shows a few of its results, in no order. Several values in a cell are separate wells, animals, samples, runs or records.
UniProt Q9H2X6, sequence (whole entry, looked up): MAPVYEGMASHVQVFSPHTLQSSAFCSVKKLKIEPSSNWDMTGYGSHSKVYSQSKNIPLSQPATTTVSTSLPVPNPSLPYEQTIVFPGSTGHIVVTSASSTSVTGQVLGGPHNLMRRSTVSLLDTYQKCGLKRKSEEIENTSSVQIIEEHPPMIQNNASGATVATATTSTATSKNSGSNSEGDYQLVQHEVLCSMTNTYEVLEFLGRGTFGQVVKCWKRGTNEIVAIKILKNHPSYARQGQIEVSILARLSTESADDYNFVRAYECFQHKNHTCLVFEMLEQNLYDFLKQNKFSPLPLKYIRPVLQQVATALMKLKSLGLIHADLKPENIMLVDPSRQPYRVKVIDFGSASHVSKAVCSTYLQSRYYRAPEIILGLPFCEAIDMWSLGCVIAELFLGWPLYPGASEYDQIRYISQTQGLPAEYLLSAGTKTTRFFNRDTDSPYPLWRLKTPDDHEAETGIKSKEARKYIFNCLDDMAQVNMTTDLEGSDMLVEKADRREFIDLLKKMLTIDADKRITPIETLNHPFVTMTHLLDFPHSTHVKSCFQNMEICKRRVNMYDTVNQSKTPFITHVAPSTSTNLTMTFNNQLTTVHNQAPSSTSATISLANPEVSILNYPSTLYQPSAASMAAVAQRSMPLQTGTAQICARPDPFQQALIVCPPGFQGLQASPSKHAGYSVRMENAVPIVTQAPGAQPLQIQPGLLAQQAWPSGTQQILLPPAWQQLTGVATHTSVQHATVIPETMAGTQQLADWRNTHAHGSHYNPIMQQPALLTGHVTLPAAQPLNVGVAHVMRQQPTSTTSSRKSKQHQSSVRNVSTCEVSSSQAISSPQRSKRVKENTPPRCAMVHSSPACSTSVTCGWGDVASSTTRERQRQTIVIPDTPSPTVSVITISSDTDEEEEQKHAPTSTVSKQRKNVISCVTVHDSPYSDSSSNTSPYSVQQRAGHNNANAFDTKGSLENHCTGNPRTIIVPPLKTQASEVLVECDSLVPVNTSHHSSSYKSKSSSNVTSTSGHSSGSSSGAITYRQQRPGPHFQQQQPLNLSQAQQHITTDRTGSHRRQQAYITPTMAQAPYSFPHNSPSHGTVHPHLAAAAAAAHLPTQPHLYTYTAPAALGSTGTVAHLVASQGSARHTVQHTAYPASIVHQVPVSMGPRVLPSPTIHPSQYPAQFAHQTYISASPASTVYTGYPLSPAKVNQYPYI
UniProt Q12852, sequence (whole entry, looked up): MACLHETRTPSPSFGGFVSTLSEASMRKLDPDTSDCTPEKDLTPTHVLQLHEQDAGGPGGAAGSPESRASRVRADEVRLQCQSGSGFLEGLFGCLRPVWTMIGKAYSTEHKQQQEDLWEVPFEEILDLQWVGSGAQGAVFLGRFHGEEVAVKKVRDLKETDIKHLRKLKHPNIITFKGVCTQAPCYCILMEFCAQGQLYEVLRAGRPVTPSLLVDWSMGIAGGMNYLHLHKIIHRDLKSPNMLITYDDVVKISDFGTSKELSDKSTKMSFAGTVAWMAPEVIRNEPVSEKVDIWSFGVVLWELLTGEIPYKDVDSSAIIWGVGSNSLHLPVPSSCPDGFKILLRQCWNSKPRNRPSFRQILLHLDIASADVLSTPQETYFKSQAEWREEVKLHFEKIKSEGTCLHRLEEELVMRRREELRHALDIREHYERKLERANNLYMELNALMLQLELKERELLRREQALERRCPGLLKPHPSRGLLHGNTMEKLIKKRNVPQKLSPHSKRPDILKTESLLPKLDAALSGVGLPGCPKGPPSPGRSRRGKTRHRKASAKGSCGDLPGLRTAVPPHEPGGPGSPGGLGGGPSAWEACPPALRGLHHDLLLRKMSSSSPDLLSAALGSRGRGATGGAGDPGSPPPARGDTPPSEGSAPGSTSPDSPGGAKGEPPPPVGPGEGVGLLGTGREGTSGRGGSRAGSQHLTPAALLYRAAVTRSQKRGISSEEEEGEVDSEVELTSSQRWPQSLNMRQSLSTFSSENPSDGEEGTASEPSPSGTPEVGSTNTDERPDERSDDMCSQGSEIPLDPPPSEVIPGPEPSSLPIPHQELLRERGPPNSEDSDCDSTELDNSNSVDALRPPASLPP
UniProt P49336, sequence (whole entry, looked up): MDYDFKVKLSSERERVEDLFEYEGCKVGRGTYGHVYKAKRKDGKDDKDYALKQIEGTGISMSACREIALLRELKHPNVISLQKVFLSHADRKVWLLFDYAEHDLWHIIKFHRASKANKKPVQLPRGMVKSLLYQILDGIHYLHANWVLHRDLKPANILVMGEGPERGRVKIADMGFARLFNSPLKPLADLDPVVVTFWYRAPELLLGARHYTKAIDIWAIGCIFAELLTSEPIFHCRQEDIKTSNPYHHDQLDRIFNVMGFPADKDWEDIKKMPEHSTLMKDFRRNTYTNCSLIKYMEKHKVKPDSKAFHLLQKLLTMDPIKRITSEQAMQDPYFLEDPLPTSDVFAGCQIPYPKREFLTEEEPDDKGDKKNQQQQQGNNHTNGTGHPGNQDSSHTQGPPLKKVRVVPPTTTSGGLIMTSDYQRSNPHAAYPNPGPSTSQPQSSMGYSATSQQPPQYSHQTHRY

Set 1
Target: DNA polymerase theta, ATPase domain (POLQ, Homo sapiens, UniProt O75417)
UniProt O75417, sequence (whole entry, unmodified, looked up): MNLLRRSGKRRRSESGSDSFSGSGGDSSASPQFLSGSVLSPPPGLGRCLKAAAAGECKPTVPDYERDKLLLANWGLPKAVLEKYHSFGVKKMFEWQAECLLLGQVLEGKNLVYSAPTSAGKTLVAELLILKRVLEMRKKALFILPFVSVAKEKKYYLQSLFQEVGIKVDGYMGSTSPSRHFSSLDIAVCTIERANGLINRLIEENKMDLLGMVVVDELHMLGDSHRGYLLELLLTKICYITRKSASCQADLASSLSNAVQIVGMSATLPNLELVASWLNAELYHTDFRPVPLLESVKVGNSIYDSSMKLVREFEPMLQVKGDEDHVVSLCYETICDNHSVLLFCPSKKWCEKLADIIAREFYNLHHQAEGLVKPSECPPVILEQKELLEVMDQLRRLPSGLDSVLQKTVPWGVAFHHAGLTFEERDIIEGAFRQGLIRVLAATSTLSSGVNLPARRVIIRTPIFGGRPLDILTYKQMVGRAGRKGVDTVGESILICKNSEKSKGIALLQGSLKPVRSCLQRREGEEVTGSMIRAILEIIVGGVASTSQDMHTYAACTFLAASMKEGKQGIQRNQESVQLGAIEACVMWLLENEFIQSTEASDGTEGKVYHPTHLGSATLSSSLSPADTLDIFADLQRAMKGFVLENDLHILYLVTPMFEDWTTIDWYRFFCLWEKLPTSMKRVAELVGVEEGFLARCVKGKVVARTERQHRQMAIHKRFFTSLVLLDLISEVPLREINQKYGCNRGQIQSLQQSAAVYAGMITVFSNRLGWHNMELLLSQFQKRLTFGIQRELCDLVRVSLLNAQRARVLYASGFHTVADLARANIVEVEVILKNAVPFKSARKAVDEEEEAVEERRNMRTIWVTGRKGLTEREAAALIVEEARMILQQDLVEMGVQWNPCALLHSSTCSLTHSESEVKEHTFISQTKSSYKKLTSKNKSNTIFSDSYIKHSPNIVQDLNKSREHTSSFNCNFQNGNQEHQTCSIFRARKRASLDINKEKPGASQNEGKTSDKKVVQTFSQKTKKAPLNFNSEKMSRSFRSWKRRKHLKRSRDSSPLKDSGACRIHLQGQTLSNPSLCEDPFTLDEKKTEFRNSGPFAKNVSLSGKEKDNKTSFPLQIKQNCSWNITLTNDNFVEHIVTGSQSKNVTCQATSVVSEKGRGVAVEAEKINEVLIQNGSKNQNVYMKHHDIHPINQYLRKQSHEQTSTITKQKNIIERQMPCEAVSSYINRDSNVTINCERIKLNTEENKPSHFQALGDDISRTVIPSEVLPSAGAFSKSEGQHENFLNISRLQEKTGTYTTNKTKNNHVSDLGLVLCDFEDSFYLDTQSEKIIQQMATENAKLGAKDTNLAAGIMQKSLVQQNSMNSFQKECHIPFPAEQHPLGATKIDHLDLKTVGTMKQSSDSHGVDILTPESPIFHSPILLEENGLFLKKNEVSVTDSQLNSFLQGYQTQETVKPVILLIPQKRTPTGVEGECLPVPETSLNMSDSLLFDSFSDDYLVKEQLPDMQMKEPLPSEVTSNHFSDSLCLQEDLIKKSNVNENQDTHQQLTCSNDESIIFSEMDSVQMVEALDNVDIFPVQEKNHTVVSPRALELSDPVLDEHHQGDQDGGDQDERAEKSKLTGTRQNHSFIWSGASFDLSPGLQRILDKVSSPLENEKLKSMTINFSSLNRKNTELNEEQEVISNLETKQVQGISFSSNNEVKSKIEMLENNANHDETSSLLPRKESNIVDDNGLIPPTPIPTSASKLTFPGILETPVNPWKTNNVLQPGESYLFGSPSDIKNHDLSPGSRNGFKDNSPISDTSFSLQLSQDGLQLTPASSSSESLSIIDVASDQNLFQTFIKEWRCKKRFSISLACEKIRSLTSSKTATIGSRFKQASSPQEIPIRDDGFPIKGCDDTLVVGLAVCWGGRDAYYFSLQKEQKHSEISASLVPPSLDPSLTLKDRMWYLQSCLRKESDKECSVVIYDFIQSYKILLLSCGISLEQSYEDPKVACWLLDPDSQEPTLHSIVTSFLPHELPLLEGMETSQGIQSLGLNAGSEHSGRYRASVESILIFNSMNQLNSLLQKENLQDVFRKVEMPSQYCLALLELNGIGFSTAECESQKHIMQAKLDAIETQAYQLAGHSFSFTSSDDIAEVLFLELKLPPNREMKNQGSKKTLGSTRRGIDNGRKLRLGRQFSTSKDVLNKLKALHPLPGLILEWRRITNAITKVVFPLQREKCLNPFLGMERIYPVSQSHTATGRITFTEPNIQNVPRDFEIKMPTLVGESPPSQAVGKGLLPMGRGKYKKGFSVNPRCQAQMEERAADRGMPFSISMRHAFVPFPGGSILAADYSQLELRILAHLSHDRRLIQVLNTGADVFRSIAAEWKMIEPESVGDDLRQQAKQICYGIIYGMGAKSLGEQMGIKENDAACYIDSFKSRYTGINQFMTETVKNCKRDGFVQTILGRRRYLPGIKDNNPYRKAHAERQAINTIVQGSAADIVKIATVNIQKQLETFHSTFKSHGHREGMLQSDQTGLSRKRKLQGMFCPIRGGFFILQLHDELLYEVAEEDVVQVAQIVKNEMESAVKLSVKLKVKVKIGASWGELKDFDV
Effect on: enzyme activity
Action: inhibitor
Concentration: 77 µM
Reference: untreated
| SMILES | remaining activity |
| --- | --- |
| C[C@@H]1CN(c2c(F)c(N)c3c(=O)c(C(=O)O)cn(C4CC4)c3c2F)C[C@H](C)N1 | 99.7% |
| O=C1c2ccc(Nc3ccc(F)cc3F)cc2CCc2ccc(OC[C@H](O)CO)cc21 | 103% |
| OCC(CO)N[C@H]1C[C@](O)(CO)[C@@H](O)[C@H](O)[C@H]1O | 102% |
| CC(=O)OCC(=O)NCCCOc1cccc(CN2CCCCC2)c1 | 95.5% and 102% |

Set 2
Structure (SMILES): COc1ccc2c(c1)O[C@@H](c1ccc(OC)c(OC)c1)C[C@H]2NC(=O)C1(c2ccc3c(c2)OC(F)(F)O3)CC1
Effect on: cell-free assay
Technique: competition with immobilised ligand
Concentration: 1 µM
| target | remaining binding [%] |
| --- | --- |
| LATS2 (Homo sapiens, UniProt Q9NRM7) | 100 |
| NEK10 (Homo sapiens, UniProt Q6ZWH5) | 86 |
| PAK5 (Homo sapiens, UniProt Q9P286) | 75 |
| Tyrosine-protein kinase JAK3, JH1 (JAK3, Homo sapiens, UniProt P52333) | 88 |
| MAP3K12 (Homo sapiens, UniProt Q12852) | 80 |
| ALK (Homo sapiens, UniProt Q9UM73, L1196M) | 90 |
| BMP2K (Homo sapiens, UniProt Q9NSY1) | 100 |
| GRK4 (Homo sapiens, UniProt P32298) | 92 |
| FLT3 (Homo sapiens, UniProt P36888, K663Q) | 100 |
| PIP4K2C (Homo sapiens, UniProt Q8TBX8) | 83 |
| STK10 (Homo sapiens, UniProt O94804) | 88 |
| Tyrosine-protein kinase ABL1, non-phosphorylated (ABL1, Homo sapiens, UniProt P00519, F317I) | 93 |
| Tyrosine-protein kinase ABL1, non-phosphorylated (ABL1, Homo sapiens, UniProt P00519, H396P) | 85 |
| PHKG1 (Homo sapiens, UniProt Q16816) | 100 |
| CDK8 (Homo sapiens, UniProt P49336) | 100 |

Set 3
SMILES: COc1ccc2[nH]c3c4[nH]c5ccc(OC)cc5c4c4c(c3c2c1)C(=O)NC4=O
Effect on: binding
Concentration: 1 µM
| target | test | remaining binding |
| --- | --- | --- |
| MAP4K1 (Homo sapiens, UniProt Q92918) | competition with immobilised ligand | 90% |
| HIPK2 (Homo sapiens, UniProt Q9H2X6) | competition with immobilised ligand | 64% |
| COQ8B (Homo sapiens, UniProt Q96D53) |  | 75% |
| EPHB4 (Homo sapiens, UniProt P54760) | competition with immobilised ligand | 84% |

Set 4
SMILES: CC(C)n1cnc(-c2ccc(F)cc2)c1-c1ncc(C(=O)Nc2ccc(N3CCN(C)CC3)cc2)[nH]1
Technique: phase 2a trial
| system | setting | patients with TEAE |
| --- | --- | --- |
| idiopathic pulmonary fibrosis patients | oral, 30 mg once daily, blood/lymphatic disorders, grade 4 | 0% |
| patients with idiopathic pulmonary fibrosis | 30 mg once daily, skin papilloma, maximum intensity grade 5 | 0% |
| idiopathic pulmonary fibrosis patients | oral, 30 mg once daily, musculoskeletal disorders, grade 5 | 0% |
| idiopathic pulmonary fibrosis patients | oral, dose not given, urine red cells, grade 3, all arms | 0% |

Set 5
SMILES: CC(C)(C)c1cnc(CSc2cnc(NC(=O)C3CCN(CCCCCSc4cccc5c4CN(C4CCC(=O)NC4=O)C5=O)CC3)s2)o1 (stereo not shown)
Dose: dose not given
| system | setting | tumour volume |
| --- | --- | --- |
| NSG mouse, HuT78 xenograft | subcutaneous, day 6 | 7.8 mm³ and 55.3 mm³ and 13.5 mm³ |
| NSG mice HuT78 xenograft | day 4 | 32 mm³ and 7.8 mm³ and 45.6 mm³ and 55.3 mm³ |
| NSG mouse, HuT78 xenograft | subcutaneous, day 2 | 55.3 mm³ and 19.7 mm³ and 45.6 mm³ and 21.4 mm³ and 32 mm³ |
| NSG mouse, HuT78 xenograft | subcutaneous, day 8 | 74.4 mm³ and 62.5 mm³ and 21.4 mm³ and 32 mm³ |

Repeated from above (set 3):
| target | test | remaining binding |
| --- | --- | --- |
| EPHB4 (Homo sapiens, UniProt P54760) | competition with immobilised ligand | 84% |
| MAP4K1 (Homo sapiens, UniProt Q92918) | competition with immobilised ligand | 90% |
| HIPK2 (Homo sapiens, UniProt Q9H2X6) | competition with immobilised ligand | 64% |
| COQ8B (Homo sapiens, UniProt Q96D53) |  | 75% |
